Experimental data pooled from the literature.
A part holds a random share of what one study measured.

Study 1 — method: RNA Bind-n-Seq; form: RNA; matrix: in vitro; concentration: 100 nM; reference: input RNA pool; reading: higher = stronger binding
Target: RING finger protein unkempt homolog, zinc fingers 1-6, SBP tag (UNK, Homo sapiens, UniProt Q9C0B0, residues 30-357)
Sequence of UniProt Q9C0B0 (30-357, looked up): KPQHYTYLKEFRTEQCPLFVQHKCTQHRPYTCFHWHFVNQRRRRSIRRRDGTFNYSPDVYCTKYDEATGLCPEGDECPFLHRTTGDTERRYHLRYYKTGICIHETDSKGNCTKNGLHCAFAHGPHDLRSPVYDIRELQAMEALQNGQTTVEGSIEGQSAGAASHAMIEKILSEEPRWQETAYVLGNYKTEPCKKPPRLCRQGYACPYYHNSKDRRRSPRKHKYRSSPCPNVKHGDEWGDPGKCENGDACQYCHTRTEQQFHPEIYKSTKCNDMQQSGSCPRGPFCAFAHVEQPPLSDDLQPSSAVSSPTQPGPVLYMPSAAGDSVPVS
Notes: RNA with constant flanks, vertebrate orthologous sites, ends assumed
Shared flanks, not repeated: GGGAGUUCUACAGUCCGACGAUC … CAACAGAGGAUUGAGCAUCA
| Strand | bound/input enrichment [ratio] |
| --- | --- |
| GAAUAUUAAAAAUCUUAAAUUACGCUGAGAUCCAGGCAGGUAUUUUGCAGGGCCAGGCCAUUGGACGGCGUUGCCGCCUUGUCUCGUCAUGUUUUUUUUUGGUUCUUUUUUUCAGAGCUG | 0.554 |
| CUACUAUAAACAACUCAGGGCAGUAUUCUCGAUAUCCUUACAGUAACCUAAAUCAGGGAUUAGUUAACAAUACAGGGAUGAAUCAAAAUUUAGGCCUUACAAAUAAUACCCCAAUGAAUC | 1.88 |
| CGCUGAUAAUUAGCUUUUUCUCAACGUGAAAUCAAUUAAGGAAAAUGUAAAUGGAGAGCUAAACGUAUUUACUGUGUCAUUCCAUGUGUGCUGGUGUGAAGUGAUUGCCAUCUUCUGUUG | 0.588 |
| UUUAAUUUCUUGUAUACAUGAUCUAGUCCUGUAUUAUUAUUAUUUUCUUACACGAUUGUUUGUCAGUAUGUCUGUGUCUGUCACAUUUCCUUCUCAGGCGAAGGGCUAGAGUUAAAAAAA | 0.804 |
| GUACUACAAAAAAAAAAUCAUCCUAGUUUUAAGCUAACCACAGUGGUAACGAGUCUGUGCUAGUAGAAUCAUUUACUAUUACUUUUUAAAUUAUCUGCUUUGUUUGAUACCUGAAACCAC | 1.94 |
| ACAGGAGCAGCAUAGGCUGUUUGAGCUUUGGGGAAAUGAGCUUUGCUUUUUAUAUUUAACUAGAAUACUUUUAUAUGAUGGGUGCUUUGAGUGUGAAUGCAGCAGGCUCUUUAUUUCCAA | 2.06 |
| CUUUUAAUCGACUAUGUCUGUAAAUGUAUAUUGAGAGAAUUGAAGUAUUUAUAAACAGAGUGAUUUAUUUAAGGAAAAGCUUAUCCCUCUUUCCUAUGGUGGUCUGUGUUAAUUCCAUUU | 0.14 |
| CAUUGAACCCUGCUGUAUAAUAAACAAUCUUAGACAUUUAUCAACUGUUGAUACAAAUGUUAGUCCCUAACCACUUUUUAUAUGUUUUAAAUUUUUGAAAUUCAAGUGUACCUGCCAUAA | 2.43 |
| AAAAAAUUAAAGACGCUUGUUUGCACACCUUUUUCCCAUUGGAAAUGGAAUCCACUGCCUUAGGUCUUUUUAAAUAGUGUAUUAUUAUCGUUGGGGCUGGCUCUAUGCUUGAAAACCAGU | 1.68 |
| GAAGAUGGUGGUUGUACAUUAUUUCAUUUAGAAAAUAUAAAAUUCAUUUUGUUUUGAAGCUAGGUGUUAAACUGGAAUAGCUAUUAUACCCCCACAGAAUGGGGCAGUUGUGCCCUUCCC | 1.42 |
| UAGCGCCAUGGUGGACGGAACCGAGCUCAAGAAGAUCCGGUCCAAUUCACGUGUUUACCAGCGCUACUUCCUCCUCGAUGCCGACAUGCAGUCUUUGCGAUGGGAGCCCUCCAAGAAGGA | 0.155 |

Study 2 — method: protein-binding microarray; form: double-stranded DNA, one strand shown; matrix: in vitro; concentration: not given; reading: higher = stronger binding
Target: Runt-related transcription factor 1 (RUNX1, Homo sapiens, UniProt Q01196, residues 1-453, full length assumed)
Sequence of UniProt Q01196 (whole entry, looked up): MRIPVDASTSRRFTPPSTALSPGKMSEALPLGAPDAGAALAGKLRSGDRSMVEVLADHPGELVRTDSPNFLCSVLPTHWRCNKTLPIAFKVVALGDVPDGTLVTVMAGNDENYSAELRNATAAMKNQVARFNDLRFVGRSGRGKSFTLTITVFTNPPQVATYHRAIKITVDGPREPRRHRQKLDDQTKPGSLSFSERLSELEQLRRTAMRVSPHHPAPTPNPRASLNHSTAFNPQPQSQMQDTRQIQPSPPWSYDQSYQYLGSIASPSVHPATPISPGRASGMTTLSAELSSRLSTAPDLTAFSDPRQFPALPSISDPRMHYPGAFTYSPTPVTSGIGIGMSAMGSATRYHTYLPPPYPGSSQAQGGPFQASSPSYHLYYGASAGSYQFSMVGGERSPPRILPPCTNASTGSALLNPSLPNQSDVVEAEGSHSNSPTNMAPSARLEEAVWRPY
Notes: k-mer, scored over probes, only values ≥0.25
| Strand | E-score |
| --- | --- |
| AAACCGC | 0.478 |
| GAACCGC | 0.333 |
| CAATACC | 0.276 |
| ACAAACC | 0.312 |
| GCGGTCA | 0.443 |
| GGGAAGA | 0.281 |
| ACCACGA | 0.354 |
| TCCCGCA | 0.277 |
| AAAACCA | 0.265 |
| GCGGTTA | 0.48 |
| CCACCGC | 0.269 |
| ACCGCGT | 0.275 |
| CCACAAG | 0.269 |
| ACCGCGA | 0.429 |
| CCACGAA | 0.313 |
| AACCACT | 0.379 |
| ACTAACC | 0.287 |

Study 3 — method: RNA Bind-n-Seq; form: RNA; matrix: in vitro; concentration: 365 nM; reference: no-protein control; reading: higher = stronger binding
Target: RNA binding protein fox-1 homolog 2, RRM domain, GST-SBP tag (RBFOX2, Homo sapiens, UniProt O43251-10, residues 100-194)
Notes: natural RNA segment, single round, ends assumed
Shared flanks, not repeated: GGGAGUUCUACAGUCCGACGAUC … UGGAAUUCUCGGGUGCCAA
Target sequence (chain): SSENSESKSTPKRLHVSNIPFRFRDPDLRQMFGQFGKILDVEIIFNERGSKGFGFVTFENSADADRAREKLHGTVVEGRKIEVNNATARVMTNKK
| Strand | RBNS enrichment (R) |
| --- | --- |
| GUUGUUCUUAUUCCUAGGUCAGGGUAGUACAAAUUACGGAAAGAGCCAGCGACGUGGUGGUCAUCAGAAUAACUACAAGCCAUACUGAGAGGCAGCAGGAGCGGCCGAGU | 0.718 |
| CCUGCCCCCCACCCUGCUCCCACAUCUGGGGGCCCAUGGGCCAGGAGUGGAUAAGCCUGCAUUAAUACAACCUUUCUCCAUUCACUUUCUAUUUACAAAUUAGGAAAGCA | 0.447 |
| CAGGUGGGGUGGGGAGUGAUGGCUGUCCUCCUCUGUCGGCCUUUUAAUGACCGUUCUGUGUCCCAUGUAUGUCUCUGACCAUCCACAGCCGCCCCUCCUCCAUACCCCAG | 0.917 |
| UUCCCUUUGGCUGUGACUGGGUGGGGCAGCAUGCAGCUUCUGAUUUUAAAGAGGCAUCUAGGGAAUUGUCAGGCACCCUACAGGAAGGCCUGCCAUGCUGUGGCCAACUG | 3.4 |
| GGGCACGCCUGCCCAGCCUCGCAUGCCAGAGCCUGGGGCAUCCCAGAGCCCAGGGCAUCCCAUGGGGGUGCUGCAGCCAGGAGGAGAGGAAAGGACAUGGGUAGCAAUUC | 1.85 |
| ACCUGGAGGUGGUCCAUGCCAGAUCCUCAUUUGUGCCUUCAGCUUCAUAGGCAGCAUACGCCUGCUGCCCCAUUGUGGGUGGGGGUGCCCCACUGCGUACUGUGUUUUUA | 0.308 |
| GAGAAAAACUUCAGGUUUUGAAAAUCAGAUGAUGUCUUCUCCUUUUCCAAACACCACACGUUGAAAGCAUUUAUAAAUCCAAGUCUGAAACUCUGCGCUCUAGUACUGCU | 1.02 |
| GUAAACUGGAAAAUCAUGUAUUUCUAAAGGCUGUGUACCUAUAAAUUAGUUGAGAAAGCUCUGUUUCAUUUAGAGUUUUAAAGGAAUAUUCUCUCUUCAAUUAAGGAAUU | 0.448 |
| GACGAGGCUCGACCCUGAUCCAGCACCAGCGCAUCCAUACCGGCGAGAAGCCUUACAAAUGUGAGGUUUGCAGCAAGGCCUUUUCCCAGAGCUCUGACCUCAUCAAACAC | 0.404 |
| AUGGACUUUCUUCCCCCUCACAAGGCUGGGGGCCUCCUGCUCUCGUCCCUGGCCCUCCCUGCACAGGGCAAAGCCAGUCUGGGCUCUGGCACACAGAGUUCAUGUUUGCG | 1.97 |
| UCGGGAUUCCCUGGUGGGCCUCGACGUCCCUUGGAUCAGAGGUCAUCCCUUCCUCCUCUCCUGGAAACAGACAGGGAGAAGUUGAGCAGGUAUCAACUAGGGGAGGAGAG | 0.247 |
| GAAUUCUUGCUUUUAAGUUCCUUUUGAUAUGUAUAUAAGCAAAGACCAGGGAUAAAUGGAAUUUUUAAAAUACAGGCUGCUGUGUUGGGGCCAGAAAUACAAGGUUGAUG | 0.527 |

Study 4 — method: RNA Bind-n-Seq; form: RNA; matrix: in vitro; concentration: 200 nM; notes: whole 134-nt RNA, ends assumed; with: 150 mM LiCl; reference: input library; reading: higher = stronger binding; library: 7-deaza-guanosine replaces G
Target: Fragile X messenger ribonucleoprotein 1, C-terminal low-complexity region (Fmr1, Mus musculus, UniProt P35922)
Shared flanks, not repeated: GGGAGUUCUACAGUCCGACGAUC … UGGAAUUCUCGGGUGUCAAGG
| Strand | log2 enrichment |
| --- | --- |
| ACCAUGCAGGUGGGCAUCUUUGGGAAGUGGGGCCAGGGGGGGAUAGGGAGGGGGGUAACACUUUGGGAACAGGUGGUCCCAGGUCGUUUC | 1.2 |
| ACCAUGCAGGUGGGCAUCUUUGGGAAGUGGGGCAAGGGGGGGAUAGGGAGGGGGGUAACACUUUGGGAAAAAGUGGUCCCAGGUCGUUUC | 1.69 |
| UUCCUCAAGUCCUGUGCUACACAUCGUAUGUACCGAAUCGGCGGCGGCGGAAAGUAUUAUGUUACGCCGUUCGGAUCUGCACUUCCAGCA | 0.736 |
| CCUCAAGUCCUGUGCUACACAUCGUAUGUACCGAAUCGGGCCGGGCCGGCCGGAAAGUAUUAUGUUACGCCGUUCGGAUCUGCACUUCCA | 0.928 |
| CAAGUCCUGUGCUACACAUCGUAUGUACCGAAUCGGGUUUUGGUUUUGGUUUUGGGAAAGUAUUAUGUUACGCCGUUCGGAUCUGCACUU | -1.84 |
| UCCUCAAGUCCUGUGCUACACAUCGUAUGUACCGAAUCGGUUUGGAGGUGGAAAGUAUUAUGUUACGCCGUUCGGAUCUGCACUUCCAGC | -1.39 |
| UGGAUUAGAGAGAAAUUGAAUUUUUUCUUACUUGAACUCCUACUAAAAAGUGAACUAAAUAUUUUAUUGUAGUAAUGGCAUAGAGGAGCC | -3.02 |
| UCCUGUGCUACACAUCGUAUGUACCGAAUCGGGCCCCCCGGGCCCCCCGGGGCCCCCCGGAAAGUAUUAUGUUACGCCGUUCGGAUCUGC | -1.98 |
| UUUCAGGGCGCCCUGCGUCCGGCAGAGGAGGCGAGCAUCCCGCUCAGGUGAUGAGGAACCCCUCGCGCACCCAGCGCAGAAGGCUGCUGC | -3.01 |
| GUCCUGUGCUACACAUCGUAUGUACCGAAUCGGGCCCCCGGCCCCCGGGCCCCCGGGGAAAGUAUUAUGUUACGCCGUUCGGAUCUGCAC | -1.56 |
| GCAGGAAGUAAAAACAAAUGGAAAUGCUUAAAAUAGUGGCAGGGGUGGGGGUUGCUAAGGAAAGGGUGGGAUGGGAGUGGGUAAAGAGUU | 1.51 |

Repeated from above (study 3):
| Strand | RBNS enrichment (R) |
| --- | --- |
| ACCUGGAGGUGGUCCAUGCCAGAUCCUCAUUUGUGCCUUCAGCUUCAUAGGCAGCAUACGCCUGCUGCCCCAUUGUGGGUGGGGGUGCCCCACUGCGUACUGUGUUUUUA | 0.308 |
| CCUGCCCCCCACCCUGCUCCCACAUCUGGGGGCCCAUGGGCCAGGAGUGGAUAAGCCUGCAUUAAUACAACCUUUCUCCAUUCACUUUCUAUUUACAAAUUAGGAAAGCA | 0.447 |
| GGGCACGCCUGCCCAGCCUCGCAUGCCAGAGCCUGGGGCAUCCCAGAGCCCAGGGCAUCCCAUGGGGGUGCUGCAGCCAGGAGGAGAGGAAAGGACAUGGGUAGCAAUUC | 1.85 |
| UUCCCUUUGGCUGUGACUGGGUGGGGCAGCAUGCAGCUUCUGAUUUUAAAGAGGCAUCUAGGGAAUUGUCAGGCACCCUACAGGAAGGCCUGCCAUGCUGUGGCCAACUG | 3.4 |
| GUUGUUCUUAUUCCUAGGUCAGGGUAGUACAAAUUACGGAAAGAGCCAGCGACGUGGUGGUCAUCAGAAUAACUACAAGCCAUACUGAGAGGCAGCAGGAGCGGCCGAGU | 0.718 |
| AUGGACUUUCUUCCCCCUCACAAGGCUGGGGGCCUCCUGCUCUCGUCCCUGGCCCUCCCUGCACAGGGCAAAGCCAGUCUGGGCUCUGGCACACAGAGUUCAUGUUUGCG | 1.97 |
